Results pooled from the literature.
Protocols differ between the studies behind these lines. ± gives the spread as reported.

SMILES | test system | conditions | scale | endpoint | result
CCCC[C@H](NC(=O)CCCCCCCNC(=O)CN1CCN(CC(=O)O)CCN(CC(=O)O)CC1)C(=O)N[C@H]1CC(=O)NCCCC[C@@H](C(N)=O)NC(=O)[C@H](Cc2c[nH]c3ccccc23)NC(=O)[C@H](CCCNC(=N)N)NC(=O)[C@@H](Cc2ccccc2)NC(=O)[C@H](Cc2c[nH]cn2)NC1=O [copper-64 labelled] | C57 mice, stomach | intravenous, 0.37 MBq, 24 h |  | tissue uptake | 0.1 ± 0.05 %ID/g
CC1=C(I)C(C)=[N+]2C1=C(c1ccc(OCCn3cc(CNC(=O)CSC[C@H](NC(=O)c4ccc(-c5nnc(C)nn5)cc4)C(=O)N[C@@H](CCCNC(=N)N)C(=O)N[C@@H](CCCNC(=N)N)C(=O)N[C@@H](CCCNC(=N)N)C(=O)N[C@@H](CCCNC(=N)N)C(=O)N[C@@H](CCCNC(=N)N)C(=O)N[C@@H](CCCNC(=N)N)C(=O)N[C@@H](CCCNC(=N)N)C(=O)N[C@@H](CCCNC(=N)N)C(N)=O)nn3)cc1)c1c(C)c(I)c(C)n1[B-]2(F)F |  | 1 µM, added: DPBF, 525 nm light | reference: rose bengal, erythrosine B | singlet oxygen quantum yield | 0.55
C/C=C(/C)C(=O)O[C@H]1C(C)=C2[C@H]([C@@H]1OC(=O)CCCCCCC)[C@@](C)(OC(C)=O)C[C@H](OC(=O)CCCCCCCCCCCNC(=O)C[C@H](N)C(=O)N[C@@H](CCC(=O)N[C@@H](CCC(=O)N[C@@H](CCC(=O)N[C@@H](CCC(=O)O)C(=O)O)C(=O)O)C(=O)O)C(=O)O)[C@@]1(O)[C@H]2OC(=O)[C@@]1(C)O | human patients | intravenous infusion, 1 h infusion |  | Vss | 5000 mL/m²
N=C(N)NCCC[C@@H]1NC(=O)[C@H](CCCCNC(=O)CNC(=O)CNC(=O)CNC(=O)CC[C@H](NC(=O)CNC(=O)CNC(=O)CNC(=O)CC[C@H](NC(=O)CN2CCN(CC(=O)O)CCN(CC(=O)O)CCN(CC(=O)O)CC2)C(=O)NCC(=O)NCC(=O)NCC(=O)N[C@@H](CCC(=O)NCC(=O)NCC(=O)NCC(=O)NCCCC[C@@H]2NC(=O)[C@@H](Cc3ccccc3)NC(=O)[C@H](CC(=O)O)NC(=O)CNC(=O)[C@H](CCCNC(=N)N)NC2=O)C(=O)NCC(=O)NCC(=O)NCC(=O)NCCCC[C@@H]2NC(=O)[C@@H](Cc3ccccc3)NC(=O)[C@H](CC(=O)O)NC(=O)CNC(=O)[C@H](CCCNC(=N)N)NC2=O)C(=O)NCC(=O)NCC(=O)NCC(=O)NCCCC[C@@H]2NC(=O)[C@@H](Cc3ccccc3)NC(=O)[C@H](CC(=O)O)NC(=O)CNC(=O)[C@H](CCCNC(=N)N)NC2=O)NC(=O)[C@@H](Cc2ccccc2)NC(=O)[C@H](CC(=O)O)NC(=O)CNC1=O [indium-111 labelled] | female athymic nu/nu mice, bone | intravenous, 0.5 h |  | tissue uptake | 2.26 ± 0.71 %ID/g
Cc1cc(-c2ccc(NC(=O)[C@H](CCCCNC(=O)CCOCCOCCC(=O)N[C@H](Cc3ccccc3)C(=O)N[C@H]3CSSC[C@@H](C(=O)N[C@H](C(=O)O)[C@@H](C)O)NC(=O)[C@H]([C@@H](C)O)NC(=O)[C@H](CCCCN)NC(=O)[C@@H](Cc4c[nH]c5ccccc45)NC(=O)[C@H](Cc4ccc(O)cc4)NC3=O)NC(=O)CN3CCN(CC(=O)O)CCN(CC(=O)O)CCN(CC(=O)O)CC3)c(C)c2)ccc1N=Nc1ccc2c(S(=O)(=O)O)cc(S(=O)(=O)O)c(N)c2c1O [lutetium-177 labelled] | patients with metastatic neuroendocrine tumours, liver |  | reference: compound over 177Lu-EB-TATE | residence time ratio | 3.4 fold
N=C(N)NCCC[C@@H]1NC(=O)[C@H](CCCCNC(=O)CNC(=O)CNC(=O)CNC(=O)CC[C@H](NC(=O)CNC(=O)CNC(=O)CNC(=O)CN2CCN(CC(=O)O)CCN(CC(=O)O)CCN(CC(=O)O)CC2)C(=O)NCC(=O)NCC(=O)NCC(=O)NCCCC[C@@H]2NC(=O)[C@@H](Cc3ccccc3)NC(=O)[C@H](CC(=O)O)NC(=O)CNC(=O)[C@H](CCCNC(=N)N)NC2=O)NC(=O)[C@@H](Cc2ccccc2)NC(=O)[C@H](CC(=O)O)NC(=O)CNC1=O [indium-111 labelled] | female athymic nu/nu mice, lungs | intravenous, 4 h |  | tissue uptake | 1.22 ± 0.08 %ID/g
CCCC[C@H](NC(=O)CNC(=O)CNC(=O)CN1CCN(CC(=O)O)CCN(CC(=O)O)CC1)C(=O)N[C@H]1CC(=O)NCCCC[C@@H](C(N)=O)NC(=O)[C@H](Cc2c[nH]c3ccccc23)NC(=O)[C@H](CCCNC(=N)N)NC(=O)[C@@H](Cc2ccccc2)NC(=O)[C@H](Cc2c[nH]cn2)NC1=O [technetium-99m labelled] | C57 mouse, liver | iv, 0.037 MBq, 4 h |  | tissue uptake | 1.43 ± 0.31 %ID/g
CCCC[C@H](NC(=O)[C@H](CC(N)=O)NC(=O)[C@H](CCCNC(=N)N)NC(=O)[C@@H](NC(=O)CNC(=O)[C@H](C)NC(=O)[C@H](CCCCNC(=O)CCC(=O)O[C@@H](C(=O)O[C@H]1C[C@@]2(O)[C@@H](OC(=O)c3ccccc3)[C@@H]3[C@]4(OC(C)=O)CO[C@@H]4C[C@H](O)[C@@]3(C)C(=O)[C@H](O)C(=C1C)C2(C)C)[C@@H](NC(=O)OC(C)(C)C)c1ccccc1)NC(=O)[C@H](C)NC(=O)[C@H](CCCNC(=N)N)NC(=O)[C@@H](NC(=O)CNC(C)=O)C(C)C)C(C)C)C(=O)N[C@@H](Cc1ccccc1)C(=O)N[C@@H](CCCCNC(=O)CCC(=O)O[C@@H](C(=O)O[C@H]1C[C@@]2(O)[C@@H](OC(=O)c3ccccc3)[C@@H]3[C@]4(OC(C)=O)CO[C@@H]4C[C@H](O)[C@@]3(C)C(=O)[C@H](O)C(=C1C)C2(C)C)[C@@H](NC(=O)OC(C)(C)C)c1ccccc1)C(=O)N[C@@H](CO)C(=O)N[C@@H](CCC(=O)O)C(=O)N[C@@H](CO)C(=O)N[C@@H](Cc1ccc(O)cc1)C(=O)O | CD-1 mouse, plasma | intravenous, 50 mg/kg, single dose |  | AUC | 569 µM·h

Some of these lines once more:
SMILES | test system | conditions | scale | endpoint | result
C/C=C(/C)C(=O)O[C@H]1C(C)=C2[C@H]([C@@H]1OC(=O)CCCCCCC)[C@@](C)(OC(C)=O)C[C@H](OC(=O)CCCCCCCCCCCNC(=O)C[C@H](N)C(=O)N[C@@H](CCC(=O)N[C@@H](CCC(=O)N[C@@H](CCC(=O)N[C@@H](CCC(=O)O)C(=O)O)C(=O)O)C(=O)O)C(=O)O)[C@@]1(O)[C@H]2OC(=O)[C@@]1(C)O | human patients | intravenous infusion, 1 h infusion |  | Vss | 5000 mL/m²
